# Published values pooled from the literature.
# Compare with care: the assays were run in different laboratories. Values joined by “and” are separate records of one study, mostly repeats; a detail may differ.
# Organism: Pseudomonas aeruginosa
Compound,assay,system,conditions,how to read,measurement,value
CC(C)C1=CC2=CCC3C(C)(C(=O)OCCC[N+](C)(C)C)CCCC3(C)C2CC1 (stereo not shown),"microbial growth, disc diffusion",ATCC27853,"125 µg/disc, 24 h",,inhibition zone,10 mm
CCCCCCCCCC(=O)Oc1c(C)c(OC)c2c(/C=C/c3ccccc3)c(CCCCCCCC)c(=O)oc2c1C,"microbial killing, broth dilution",ATCC27853,,,MBC,> 5000 µg/mL
CCCC(O)c1nn[nH]c1-c1ccc(O)c(OC)c1 (stereo not shown),static biofilm,PA14,"10 µM, 24 h, static",relative to: DMSO,biofilm formation,74%
O=C(NCc1cc(Br)cc(Br)c1OC(=O)c1ccccc1[N+](=O)[O-])c1ccccc1Cl,elastin-Congo red,PAO1 wild type,"100 µM, 20 h",,elastase production,140%
CN(C)S(=O)(=O)c1ccc(S(=O)(=O)N2CCC(n3c(=O)[nH]c4ccccc43)CC2)cc1,,"CIP 27853, mouse lung infection model, lung","6 mg/kg, 24 h",,lung bacterial burden,4.39 log CFU and 4.75 log CFU and 5.57 log CFU and 7.79 log CFU and 4.58 log CFU and 4.54 log CFU and 4.91 log CFU
O=C(Nc1ccccc1NC(=O)c1cccc(Cl)c1)c1cccc(Cl)c1,elastin-Congo red,PAO1 wild type,"100 µM, 20 h",relative to: DMSO,elastase production,69.8%
CC[C@H](C)CCCCC(=O)N[C@@H](CCN)C(=O)N[C@H](C(=O)N[C@@H](CCN)C(=O)N[C@H]1CCNC(=O)[C@H]([C@@H](C)O)NC(=O)[C@H](CCN)NC(=O)[C@H](CCN)NC(=O)[C@H](CC(C)C)NC(=O)[C@@H](CC(C)C)NC(=O)[C@H](CCN)NC1=O)[C@@H](C)O,,PAO1,0 min,,bacterial count,7.9 log CFU and 7.68 log CFU
O=C(Oc1cccccc1=O)c1ccc([N+](=O)[O-])cc1,"microbial growth, broth dilution",ATCC27853,,,MIC80,> 71.4 µM
CCCCCCCCCCCC(=O)Oc1c(C)c(OC)c2c(c1C)OC(=O)[C@@H](CCCCCCCCCC)[C@]2(O)/C=C/c1ccccc1 (relative stereo),"microbial killing, broth dilution",ATCC27853,,,MBC,> 5000 µg/mL
CCCC(=O)C#Cc1ccc(F)c(F)c1,biofilm formation,PA14,static,,IC50,25 µM
OB(O)c1ccc(C(F)(F)F)s1,,,"100 µM, 10 h",relative to: untreated,growth,106% and 88.2% and 97% and 97.6% and 103%
CCCCCCCCCC(=O)CC(=O)Nc1ccccc1,elastin-Congo red,PAO1 wild type,"100 µM, 20 h",,elastase production,51.1%
CCCCCC(=O)Oc1c(C)c(OC)c2c(c1C)OC(=O)[C@@H](CCCC)[C@]2(O)/C=C/c1ccccc1 (relative stereo),"microbial killing, broth dilution",ATCC27853,,,MBC,> 5000 µg/mL
Cc1cccc(C(=O)Sc2cccccc2=O)c1,"microbial growth, broth dilution",ATCC27853,,,MIC80,> 71.4 µM
CC(CCCOC(=O)CCC[N+](C)(C)C)C1CCC2C3CCC4CC(OC(=O)CCC[N+](C)(C)C)CCC4(C)C3CCC12C (stereo not shown),"microbial growth, disc diffusion",ATCC27853,"62.5 µg/disc, 24 h",,inhibition zone,9 mm
CCCCCCCC(=O)Oc1c(C)c(OC)c2c(/C=C/c3ccccc3)c(CCCCCC)c(=O)oc2c1C,"microbial killing, broth dilution",ATCC27853,,,MBC,> 5000 µg/mL
CCCCCCCCCC(=O)CC(=O)Nc1cccc(OC)c1,elastin-Congo red,PAO1 wild type,"100 µM, 20 h",relative to: DMSO,elastase production,42.4%
COc1c(C)c(OC(=O)c2ccccc2)c(C)c(OC(=O)c2ccccc2)c1C(=O)/C=C/c1ccccc1,"microbial killing, broth dilution",ATCC27853,,,MBC,> 5000 µg/mL
O=C(CCc1ccc(Br)cc1)N[C@H]1CCOC1=O,elastin-Congo red,PAO1 wild type,"100 µM, 20 h",,elastase production,92.2%
O=c1c(O)ccccc1O,"microbial growth, broth dilution",ATCC27853,,,MIC80,> 100 µM
CC(C)c1ccc2c(c1)CCC1C(C)(CN(CC(O)C[N+](C)(C)C)CC(O)C[N+](C)(C)C)CCCC21C (stereo not shown),"microbial growth, disc diffusion",ATCC27853,"250 µg/disc, 24 h",,inhibition zone,11 mm
CC(NC(=O)c1ccccc1)C(CCCCCCCCCCCCCCC(=O)CCCCCCCC(OC(=O)c1ccccc1)C(C)NC(=O)c1ccccc1)OC(=O)c1ccccc1 (stereo not shown),resazurin,ATCC 27853,50 µM,,growth inhibition,7%
CCCCCCCCCCCCn1nnc(CC(=O)O)n1,elastin-Congo red,PAO1 wild type,"100 µM, 20 h",,elastase production,55.6%
CCCCCCCCCC(=O)Oc1c(C)c(OC)c2c(c1C)OC(=O)C(CCCCCCCC)C2(O)C=Cc1ccccc1 (stereo not shown),"microbial killing, broth dilution",ATCC27853,,,MBC,> 5000 µg/mL
CC(=O)N[C@@H](CCCCN)C(=O)N1CCC[C@H]1C(=O)N[C@H](C(=O)N[C@@H](Cc1ccccc1)C(=O)N[C@@H](CCC(N)=O)C(=O)N[C@@H](Cc1ccccc1)C(=O)N[C@@H](CC(C)C)C(=O)N[C@@H](Cc1ccccc1)C(=O)N[C@@H](Cc1c[nH]cn1)C(=O)N[C@@H](CCC(=O)O)C(N)=O)C(C)C,flow cytometry,"PAO1, hydrogel","concentration not given, 4 h, pH 7.4, 37 °C",,PI-permeable cells,0.12%
O=C(Oc1cccccc1=O)c1ccccc1,"microbial growth, broth dilution",ATCC27853,,,MIC80,> 71.4 µM
C=CCOc1c(C)c(OC)c(C(=O)/C=C/c2ccccc2)c(OCC=C)c1C,"microbial killing, broth dilution",ATCC27853,,,MBC,> 5000 µg/mL
CCCCCCCCCNC(=O)CC(=O)c1ccccc1,elastin-Congo red,PAO1 wild type,"100 µM, 20 h",,elastase production,15%
CC(C)C[C@@H]1NC(=O)[C@@H](CC(C)C)NC(=O)[C@H](CCN)NC(=O)[C@@H](NC(=O)[C@H](CCN)NC(=O)[C@@H](N)[C@@H](C)O)CCNC(=O)[C@H]([C@@H](C)O)NC(=O)[C@H](CCN)NC(=O)[C@H](CCN)NC1=O,broth microdilution,"ATCC 13883, cation-adjusted Mueller-Hinton broth",,,MIC,> 138 µM
O=C(CCCCCCCCCN=C=S)CC(=O)N[C@H]1CCOC1=O,elastin-Congo red,PAO1 wild type,"100 µM, 20 h",relative to: DMSO,elastase production,225%
CCCCCCCCCCCC(=O)Oc1c(C)c(OC)c2c(/C=C/c3ccccc3)c(CCCCCCCCCC)c(=O)oc2c1C,"microbial killing, broth dilution",ATCC27853,,,MBC,> 5000 µg/mL

# Excerpt of the above:
Compound,assay,system,conditions,how to read,measurement,value
CC(NC(=O)c1ccccc1)C(CCCCCCCCCCCCCCC(=O)CCCCCCCC(OC(=O)c1ccccc1)C(C)NC(=O)c1ccccc1)OC(=O)c1ccccc1 (stereo not shown),resazurin,ATCC 27853,50 µM,,growth inhibition,7%
CCCCCCCCCCCC(=O)Oc1c(C)c(OC)c2c(c1C)OC(=O)[C@@H](CCCCCCCCCC)[C@]2(O)/C=C/c1ccccc1 (relative stereo),"microbial killing, broth dilution",ATCC27853,,,MBC,> 5000 µg/mL
